Experimental data pooled from the literature.
Each numbered part is a random draw from the data of one study; scales do not carry over between parts.

Block 1 — technique: aptamer microarray, sandwich; molecule type: DNA with 2'F-ANA; sample: in vitro; concentration: 200 nM; added: Cy3 exosite-II aptamer, 400 nM; reading: higher = stronger binding; oligonucleotide: GGTTGGTGTGGTTGG
Target: Prothrombin, mature alpha-thrombin (F2, Homo sapiens, UniProt P00734)
Notes: whole 15-mer aptamer, many near background
| Modification | mean fluorescence intensity |
| --- | --- |
| 2'F-ANA at 2 3 4 5 6 7 9 10 12 13 15 | 63.4 a.u. |
| 2'F-ANA at 2 5 7 10 12 13 14 | 42.1 a.u. |
| 2'F-ANA at 3 4 6 9 10 11 13 | 252 a.u. |
| 2'F-ANA at 3 6 7 8 9 10 11 12 13 15 | 486 a.u. |
| 2'F-ANA at 1 2 4 7 8 9 10 13 | 65.6 a.u. |
| 2'F-ANA at 1 3 6 8 10 14 15 | 56.8 a.u. |
| 2'F-ANA at 1 3 4 5 6 7 8 9 12 13 | 80.2 a.u. |
| 2'F-ANA at 1 3 5 6 7 9 10 12 13 | 48.2 a.u. |
| 2'F-ANA at 1 2 3 4 5 7 8 9 10 11 13 14 | 74.4 a.u. |
| 2'F-ANA at 1 4 5 6 8 9 10 13 14 | 49.2 a.u. |
| 2'F-ANA at 4 5 8 12 13 15 | 99 a.u. |
| 2'F-ANA at 6 8 9 11 14 | 187 a.u. |
| 2'F-ANA at 5 9 12 | 172 a.u. |
| 2'F-ANA at 1 5 8 9 10 11 12 13 15 | 49 a.u. |
| 2'F-ANA at 1 2 3 8 11 14 | 108 a.u. |
| 2'F-ANA at 1 2 4 5 7 8 12 14 15 | 49.8 a.u. |
| 2'F-ANA at 1 8 10 11 15 | 66.8 a.u. |
| 2'F-ANA at 1 2 3 6 7 8 9 10 11 14 | 54.9 a.u. |

Block 2 — technique: RNA Bind-n-Seq; molecule type: RNA; sample: in vitro; concentration: 365 nM; reference: no-protein control; reading: higher = stronger binding
Target: RNA binding protein fox-1 homolog 2, RRM domain, GST-SBP tag (RBFOX2, Homo sapiens, UniProt O43251-10, residues 100-194)
Notes: natural RNA segment, single round, ends assumed
Constant ends, left off below: GGGAGUUCUACAGUCCGACGAUC … UGGAAUUCUCGGGUGCCAA
Target sequence (chain): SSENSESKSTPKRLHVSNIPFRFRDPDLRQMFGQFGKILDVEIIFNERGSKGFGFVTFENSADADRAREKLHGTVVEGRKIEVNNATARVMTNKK
| Oligonucleotide | RBNS enrichment (R) |
| --- | --- |
| CUCGUUUGAGCCUGAAGCACUGGGCAACCUGGUUGAAGGGAUGGACUUCCACAGAUUCUACUUCGAGAACGUGCUGGCCAAGAACAGCAAGCCGAUCCACACGACCAUCC | 0.428 |
| CUGUUUAAUUUUAAUUCAGUUGUUAAUGUGUCUUAGUGUGUGCAUUAUUUUCUUACUAUUAACCCAUGGUUUGCAGGCUCUGUUCAACCCUUUUCCUUCUUCCUAUCCCC | 0.462 |
| AUCUUGAUGCUAGGAUGCUCCUGGUACUAACUAAACAUUGGCAGUUCACAUCCCAGACACCAGGGGUCAGGUACUAACUAAAGAGAUGGAAUGCAGUGUGCUUUUUGAGA | 0.585 |
| CUGACUCAUUCUGAAGGAGCCCCAUUCCUGGGAAAUAUUCCCUAGAAACUUCCAAAUCCCCUAAGCAGACCACUGAUAAAACCAUGUAGAAAAUUUGUUAUUUUGCAACC | 0.562 |
| UAGUCUCUCUUUACAUAUUACUAUAUGGAAAUGAAUUGCUCUGUGCUGAAAUUUGAAGACCAGAUAAUGAAACUGAAAAGCAAACAAUUUUACUGAAUCUGUCUACCCUU | 0.51 |
| CCAGCCCUGCUUGCUUUUGUGAACGUCGUGUGAGUACACCGAGGUGUUGCAGCUUUCCUUCCCUCUAGCUCAGGAGGCCUGGCCUGAGCCAGGUUGGAGCUUAAAUUGCU | 0.795 |
| CCCGCCACGAUCUUUCUGUGGUAGCGGCCAGCAGAAGACAUGGCCUGCUCCCCACUCCCUUUCCCCACUCCUUCUUUAUUGCACACAGGACACCAGUCUUCAAGGAAAGG | 0.85 |
| UUUCUAUUCUUGGAGAUAAAAAUUAAAUGGAUCACUGAUAUUUUAGUCAUUCUGCUUCUCAUCUAAAUAUUUCCAUAUUCUGUAUUAGGAGAAAAUUACCCUCCCAGCAC | 0.401 |
| CAGUUAUUAAAAUGUUUUGCUAAGAAUUAAAAAUCUUAAACAAACCCGUAAGUGCCACUAGGAAGGAAACCUCAAAUCCACCUACACUGAACCCAGGAACAUCUACAGCA | 0.733 |
| UUCCUCAAAACCCCCUGGAGGGGCAAAAGAUGACAGCGACACAGAGAAAGUUUGGGGCAUGAUAUAUGUCCAUUUCUCUACGAAAUAUUUGUUAUGGAGCUGUGCUAAUU | 0.461 |
| UGGAGGAAAGCUCUUCUUGGUACAGUCUCCUCUUCCCACCAACUCCUCACGACUCUUCAUCAACCAAGGAGCCUCCAGACAGAGAGGAGGAAGAAGGAAUUCACUAGGUU | 0.399 |
| AAUUUAUGUUAAAGUAUUAACCCUUUGUCACAAAGGAAUGGUAAUGUGAUUGGCUGCCUGUUAGCCCAUCGACUAUUCCCGUCACGGUAGUCCUUACCUCUGUCGGCAGC | 0.285 |

Block 3 — technique: RNA Bind-n-Seq; molecule type: RNA; sample: in vitro; concentration: 1 µM; notes: whole 134-nt RNA, ends assumed; added: 150 mM KCl; reference: input library; reading: higher = stronger binding
Target: Ras GTPase-activating protein-binding protein 1, RRM domain (G3BP1, Homo sapiens, UniProt Q13283)
UniProt Q13283, sequence (whole entry, looked up): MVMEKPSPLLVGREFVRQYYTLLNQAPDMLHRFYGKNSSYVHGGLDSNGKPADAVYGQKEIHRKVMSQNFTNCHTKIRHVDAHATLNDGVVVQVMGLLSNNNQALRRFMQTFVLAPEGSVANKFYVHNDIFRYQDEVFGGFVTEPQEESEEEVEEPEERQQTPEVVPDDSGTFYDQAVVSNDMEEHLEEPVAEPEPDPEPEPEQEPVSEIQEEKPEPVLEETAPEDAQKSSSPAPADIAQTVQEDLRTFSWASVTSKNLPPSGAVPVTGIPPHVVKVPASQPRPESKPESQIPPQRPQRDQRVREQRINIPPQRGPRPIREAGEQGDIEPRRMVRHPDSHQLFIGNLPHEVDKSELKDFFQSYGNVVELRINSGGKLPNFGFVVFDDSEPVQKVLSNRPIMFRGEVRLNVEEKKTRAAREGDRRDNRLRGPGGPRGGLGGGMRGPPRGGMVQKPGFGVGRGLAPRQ
Constant ends, left off below: GGGAGUUCUACAGUCCGACGAUC … UGGAAUUCUCGGGUGUCAAGG
| Oligonucleotide | log2 enrichment |
| --- | --- |
| UAACUUUAGAGGAGGAUCUGUUGGAUAUGGCAGUGGACGUGGAUUUGGGGAUGGCUAUAAUGGGUAUGGAGGAGGACCUGGAGGUGGCAA | -0.518 |
| CCUGUGCUACACAUCGUAUGUACCGAAUCGGGAAAAAGGGUUUUUUUGGGAAAAAAAGGGAAAGUAUUAUGUUACGCCGUUCGGAUCUGC | -0.216 |
| UCCUGUGCUACACAUCGUAUGUACCGAAUCGGGAAAAAGGGUUUUUUUGGGAAAAAGGGAAAGUAUUAUGUUACGCCGUUCGGAUCUGCA | -0.151 |
| ACCAUGCAGGUGGGCAUCUUUGGGAAGUGGGGCAAGGGGGGGAUAGGGAGGGAAAUAACACUUUGGGAACAGGUGGUCCCAGGUCGUUUC | -0.356 |
| GCAGGAAGUAAAAACAAAUGGAAAUGCUUCGGCUAGUGGCAGGGGUGGGGGUUGCUAAGGAAAGGGUGGGAUGGGAGUGGGUAAAGAGUU | 1.08 |
| UCAAGUCCUGUGCUACACAUCGUAUGUACCGAAUCGGUUUGGUUUGGAAAAAGGAAAGUAUUAUGUUACGCCGUUCGGAUCUGCACUUCC | -0.161 |
| CAAGUCCUGUGCUACACAUCGUAUGUACCGAAUCGGGAAAGGGGAAAGGGGAAAGGAAAGUAUUAUGUUACGCCGUUCGGAUCUGCACUU | -0.309 |
| ACCAUGCAGGUGGGCAUCUUUGGGAAGUGGGGCAAGGGAAAGAUAGGGAGGGGGGUAACACUUUGGGAACAGGUGGUCCCAGGUCGUUUC | -0.358 |
| AGUCCUGUGCUACACAUCGUAUGUACCGAAUCGGGGUGGGGUUUUUGGGGUUUGGGGAAAGUAUUAUGUUACGCCGUUCGGAUCUGCACU | 0.54 |
| GCAGGAAGUAAAAGCAAAUGGAAAUGCUUCGGAUAGUGGCAGGGGUGGGGGUUGCUAAGGAAAGGGUGGGAUGGGAGUGGGUAAAGAGUU | 0.927 |
| UCCUGUGCUACACAUCGUAUGUACCGAAUCGGGUUUUUGGGUUUUUUUGGGUUUUUGGGAAAGUAUUAUGUUACGCCGUUCGGAUCUGCA | -0.0091 |
| UCCUGUGCUACACAUCGUAUGUACCGAAUCGGGCCCCCCGGGCCCCCCGGCCCCCCGGGGAAAGUAUUAUGUUACGCCGUUCGGAUCUGC | -0.515 |
| ACCAUGCAGGUGGGCAUCUUUGGGAAGUGGGGCAAGGGGGGGAUAGGGAGGGGGGUAACACUUUGGGAACAGGUGGUUCCAGGUCGUUUC | 1.18 |
| CCUGUGCUACACAUCGUAUGUACCGAAUCGGGGUUUUUGGGGUUUGGGGAAAAAAAGGGGAAAGUAUUAUGUUACGCCGUUCGGAUCUGC | 0.605 |

Block 4 — technique: universal PBM; molecule type: double-stranded DNA, one strand shown; sample: in vitro; concentration: not given; reading: higher = stronger binding
Target: Sal-like protein 4, full length isoform B (SALL4, Homo sapiens, UniProt Q9UJQ4-2, residues 1-616)
Notes: 8-mer, flanks averaged, mean of replicates
Construct (chain): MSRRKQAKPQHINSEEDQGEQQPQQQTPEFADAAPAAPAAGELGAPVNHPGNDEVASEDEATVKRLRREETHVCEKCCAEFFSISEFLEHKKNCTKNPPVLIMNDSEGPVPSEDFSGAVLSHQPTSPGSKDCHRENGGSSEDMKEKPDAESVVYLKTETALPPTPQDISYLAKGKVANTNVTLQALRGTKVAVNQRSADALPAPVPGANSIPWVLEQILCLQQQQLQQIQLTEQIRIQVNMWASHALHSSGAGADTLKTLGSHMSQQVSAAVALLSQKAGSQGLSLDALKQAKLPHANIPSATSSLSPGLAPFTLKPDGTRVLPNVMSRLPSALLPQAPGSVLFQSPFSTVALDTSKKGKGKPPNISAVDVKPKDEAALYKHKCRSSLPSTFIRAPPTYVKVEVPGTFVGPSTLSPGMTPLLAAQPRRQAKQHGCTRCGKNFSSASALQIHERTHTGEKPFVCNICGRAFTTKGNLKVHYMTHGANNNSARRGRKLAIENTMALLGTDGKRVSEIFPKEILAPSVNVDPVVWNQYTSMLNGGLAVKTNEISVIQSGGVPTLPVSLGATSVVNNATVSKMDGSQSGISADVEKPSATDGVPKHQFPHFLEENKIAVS
| Oligonucleotide | E-score |
| --- | --- |
| GCATTCCA | -0.0124 |
| CCAAAGGC | -0.212 |
| AAGTCTAG | 0.0464 |
| AGTGCGGA | -0.156 |
| AGTGCCCG | -0.219 |
| CAGGGGGC | -0.34 |
| ACGATATG | 0.218 |
| CGATCGAA | -0.123 |
| GGATAACC | -0.154 |
| GACAACAA | 0.117 |
| GGATGGTA | 0.151 |
| AGACTTCC | -0.0484 |
| AGTGAGTC | -0.161 |
| ACACATTA | 0.214 |
| GAAAATTC | 0.135 |
| AAGTCTAT | 0.109 |
| GCAGGTAA | 0.096 |
| ACAACCGG | -0.159 |

Block 5 — technique: protein binding microarray; molecule type: double-stranded DNA, one strand shown; sample: in vitro; concentration: not given; reference: not given; reading: higher = stronger binding
Target: Histone acetyltransferase KAT6A, both winged helices, GST fusion (KAT6A, Homo sapiens, UniProt Q92794, residues 1-181)
Notes: 8-mer, flanks averaged, mean of 2 arrays, mostly near background
Construct (chain): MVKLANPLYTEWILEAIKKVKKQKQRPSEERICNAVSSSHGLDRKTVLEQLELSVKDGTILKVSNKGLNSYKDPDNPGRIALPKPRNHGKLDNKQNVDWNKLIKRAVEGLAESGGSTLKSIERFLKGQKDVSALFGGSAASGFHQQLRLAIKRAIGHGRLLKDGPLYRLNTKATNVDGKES
| Oligonucleotide | E-score |
| --- | --- |
| GCCTGTTA | -0.214 |
| AACTGCTC | 0.0323 |
| GGGTGGGA | -0.0717 |
| GCGCGCTA | 0.387 |
| GGCCGTGA | 0.259 |
| ACCTAACA | -0.115 |
| CCAATCCC | -0.172 |
| CAAGCCGC | 0.224 |
| GTTTCCGA | 0.206 |
| CCTCGTTA | -0.226 |
| TCAGATCA | -0.163 |
| CACCTCGG | 0.0649 |
| ATAGCGCG | 0.321 |
| CAGGCAGA | -0.251 |
| CGGTGGCC | 0.09 |
| GGTCAACC | 0.000535 |
| TAACCATA | -0.0277 |
| AGCGCGTG | 0.284 |
| TACCAAGA | 0.0281 |
| CACCGGCG | 0.252 |
| ACCGTGGA | 0.13 |
| GCGGGAAA | 0.268 |
| ATACTGCG | 0.12 |
| AAGTCCCG | 0.174 |
| CGACAAGA | 0.0248 |

Some of these lines once more (block 1):
| Modification | mean fluorescence intensity |
| --- | --- |
| 2'F-ANA at 3 4 6 9 10 11 13 | 252 a.u. |
| 2'F-ANA at 3 6 7 8 9 10 11 12 13 15 | 486 a.u. |
| 2'F-ANA at 1 2 4 7 8 9 10 13 | 65.6 a.u. |
| 2'F-ANA at 1 3 6 8 10 14 15 | 56.8 a.u. |
| 2'F-ANA at 1 3 4 5 6 7 8 9 12 13 | 80.2 a.u. |
| 2'F-ANA at 1 3 5 6 7 9 10 12 13 | 48.2 a.u. |
| 2'F-ANA at 1 2 3 4 5 7 8 9 10 11 13 14 | 74.4 a.u. |
| 2'F-ANA at 1 4 5 6 8 9 10 13 14 | 49.2 a.u. |
| 2'F-ANA at 4 5 8 12 13 15 | 99 a.u. |
| 2'F-ANA at 6 8 9 11 14 | 187 a.u. |
| 2'F-ANA at 5 9 12 | 172 a.u. |
| 2'F-ANA at 1 5 8 9 10 11 12 13 15 | 49 a.u. |
| 2'F-ANA at 1 2 3 8 11 14 | 108 a.u. |
